Measurements from different studies.
A part holds a random share of what one study measured. Changes are numbered by the printed parent chain.

Study 1
Target: CEBPB, bZIP domain (human)
Method: DHFR protein complementation
Medium: yeast
Setting: single substitutions, most at no-binding floor
Reference: wild-type JUN-FOS pair
Reading: higher = stronger binding
Endpoint: binding fitness
Parent: JUN, bZIP domain (human); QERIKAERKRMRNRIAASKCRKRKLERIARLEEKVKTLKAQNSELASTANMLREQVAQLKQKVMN; partner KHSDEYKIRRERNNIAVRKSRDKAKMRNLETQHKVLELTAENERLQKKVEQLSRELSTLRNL
K36F: -1.53 natural log
L38V: -1.47 natural log
T48R: -1.05 natural log
K36N: -1.29 natural log
V35P: -1.52 natural log
K39D: -1.41 natural log
L38S: -1.58 natural log
M51V: -1.32 natural log
E54H: -1.3 natural log
E54L: -1.35 natural log
A57P: -1.48 natural log
E54Q: -1.46 natural log
K36I: -1.43 natural log
N42L: -1.51 natural log
I28Q: -0.851 natural log
E32F: -1.48 natural log
S43R: -1.19 natural log
I28S: -1.21 natural log

Study 2
Target: Ras GTPase-activating protein-binding protein 1, full length (G3BP1, Homo sapiens, UniProt Q13283)
Chain of UniProt Q13283 (whole entry, looked up): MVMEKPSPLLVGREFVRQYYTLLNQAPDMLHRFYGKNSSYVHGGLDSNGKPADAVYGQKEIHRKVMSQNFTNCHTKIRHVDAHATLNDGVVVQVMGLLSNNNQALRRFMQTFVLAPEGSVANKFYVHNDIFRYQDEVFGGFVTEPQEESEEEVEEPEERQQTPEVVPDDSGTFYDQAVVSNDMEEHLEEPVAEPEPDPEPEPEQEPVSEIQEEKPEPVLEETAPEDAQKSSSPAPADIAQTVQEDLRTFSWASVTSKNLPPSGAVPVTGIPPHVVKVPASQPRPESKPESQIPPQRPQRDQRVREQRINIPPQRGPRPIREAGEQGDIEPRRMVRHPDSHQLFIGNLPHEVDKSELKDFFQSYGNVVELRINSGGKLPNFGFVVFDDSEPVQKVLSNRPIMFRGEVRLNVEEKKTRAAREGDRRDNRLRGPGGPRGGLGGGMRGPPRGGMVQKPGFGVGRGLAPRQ
Method: RNA Bind-n-Seq
Form: RNA
Medium: in vitro
Tested at: 200 nM
Setting: whole 134-nt RNA, ends assumed
Added: 150 mM LiCl
Reference: input library
Reading: higher = stronger binding
Endpoint: log2 enrichment
Library: 7-deaza-guanosine replaces G
All sequences stand within: GGGAGUUCUACAGUCCGACGAUC … UGGAAUUCUCGGGUGUCAAGG
AGUCCUGUGCUACACAUCGUAUGUACCGAAUCAAAUUUUUAAAUUUAAACCCCCAAAAAAGUAUUAUGUUACGCCGUUCGGAUCUGCACU: 0.464
UGUCCUGUGCUUUCACAUUCUUUCUGCAUGGAGAAAGUAAUGUAUGCACAAGUGUGGAGAUUGCCCAGCACCAGCCAAUUUAUUUGAUCA: -2.8
ACCAUGCAGGUGGGCAUCUUUGGGAAGUGGGGCAAGGGGGGGAUAGGGAGGGGGGUAACACUUUGGUAACAGGUGGUCCCAGGUCGUUUC: -0.0625
UGUGCUACACAUCGUAUGUACCGAAUCGGUUUUUUUGGGGUUUUUUUGGGGUUUUUUUGGGGAAAGUAUUAUGUUACGCCGUUCGGAUCU: 1.82
AGUCCUGUGCUACACAUCGUAUGUACCGAAUCGGCCCCCGGGGCCCCCGGGCCCCCGGAAAGUAUUAUGUUACGCCGUUCGGAUCUGCAC: -1.13
UUGCAGCAACUGCUACCAGCCUCCCAGUCCACACAGCUGCCAUGCUCAAGUUCCCCUCAGGAGACCACCCAGUCUCGCCCUAUGCCGCCG: 0.0403
GCAGGAAGUAAAAACAAAUGGAAAUGAAACGGAUAGUGGCAGGGGUGGGGGUUGCUAAGGAAAGGGUGGGAUGGGAGUGGGUAAAGAGUU: -0.0202
ACCAUGCAGGUGGGCAUCUUCGGGAAGUGGGGCAAGGGGGGGAUAGGGAGGGGGGUAACACUUUGGGAACAGGUGGUCCCAGGUCGUUUC: 0.518
UCCUGUGCUACACAUCGUAUGUACCGAAUCGGGAAAAAAAGGGUUUGGGAAAAAAAGGGAAAGUAUUAUGUUACGCCGUUCGGAUCUGCA: -0.892
CACAGACAACACGCACCCACACAGACACAGACGGAAGGGGUUGGGAUGGGGACAGGGUGCACAGCAGGGCGGGGUAGGACCCCAGCCCCU: 0.0213
AGUCCUGUGCUACACAUCGUAUGUACCGAAUCGGGGAGGGGAAAAAGGGGAAAGGGGAAAGUAUUAUGUUACGCCGUUCGGAUCUGCACU: 0.302

Study 3
Target: Prothrombin, mature alpha-thrombin (F2, Homo sapiens, UniProt P00734)
Method: aptamer microarray, sandwich
Form: DNA with 2'F-ANA
Medium: in vitro
Tested at: 200 nM
Setting: whole 15-mer aptamer, many near background
Added: Cy3 exosite-II aptamer, 400 nM
Reading: higher = stronger binding
Endpoint: mean fluorescence intensity
Sequence: GGTTGGTGTGGTTGG
2'F-ANA at 2 4 6 7 8 9 11 15: 233 a.u.
2'F-ANA at 3 4 6 7 8 9 13 15: 438 a.u.
2'F-ANA at 1 7 9 11 13: 131 a.u.
2'F-ANA at 1 2 3 6 7 8 9 11 13: 157 a.u.
2'F-ANA at 1 4 5 6 9 11 13: 48.2 a.u.
2'F-ANA at 1 5 9 11 12 14 15: 51.5 a.u.
2'F-ANA at 4 5 6 7 9 10 11 12 13 14 15: 50.2 a.u.
2'F-ANA at 3 5 8 11 13 14: 70.7 a.u.
2'F-ANA at 4 5 10 11 14: 43.8 a.u.
2'F-ANA at 1 3 6 9 10 12: 451 a.u.
2'F-ANA at 1 2 4 6 7 9 10 11 12: 55.7 a.u.
2'F-ANA at 2 6 8 11 12 14: 149 a.u.
2'F-ANA at 2 3 4 5 6 7 9 14 15: 61.3 a.u.
2'F-ANA at 1 4 6 8 9 14: 45.3 a.u.
2'F-ANA at 4 5 7 12 13 14 15: 44.7 a.u.
2'F-ANA at 1 3 4 6 8 11 14 15: 68.7 a.u.
2'F-ANA at 1 2 3 6 7 9 10 14 15: 53.2 a.u.
2'F-ANA at 1 2 3 7 11 12 13 15: 339 a.u.
2'F-ANA at 5 6 8 9 10 11 12 13 15: 75.8 a.u.
2'F-ANA at 2 4 6 7 8 13 14: 102 a.u.
2'F-ANA at 2 3 4 15: 717 a.u.
2'F-ANA at 2 4 5 6 8 9 10 13 14: 53.5 a.u.
2'F-ANA at 1 2 4 7 10 11: 48.8 a.u.
2'F-ANA at 3 5 7 8 9 11 12 13 14: 87.7 a.u.
2'F-ANA at 1 2 3 5 6 8 11 15: 94.6 a.u.

Study 4
Target: ABI1, truncated, D143A, DHFR fusion (Arabidopsis thaliana)
Method: DHFR PCA, deep sequencing
Medium: yeast
Setting: methotrexate growth selection, single substitutions
Added: (+)-ABA 2500 µM
Reference: wild-type fitted maximum
Reading: higher = stronger binding
Endpoint: relative binding score
Parent: PYL1, truncated, DHFR fusion (Arabidopsis thaliana); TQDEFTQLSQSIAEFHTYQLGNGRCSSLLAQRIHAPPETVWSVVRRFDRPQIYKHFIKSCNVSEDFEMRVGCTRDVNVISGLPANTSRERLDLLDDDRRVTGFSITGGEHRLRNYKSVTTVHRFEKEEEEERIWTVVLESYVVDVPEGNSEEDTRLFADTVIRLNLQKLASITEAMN; partner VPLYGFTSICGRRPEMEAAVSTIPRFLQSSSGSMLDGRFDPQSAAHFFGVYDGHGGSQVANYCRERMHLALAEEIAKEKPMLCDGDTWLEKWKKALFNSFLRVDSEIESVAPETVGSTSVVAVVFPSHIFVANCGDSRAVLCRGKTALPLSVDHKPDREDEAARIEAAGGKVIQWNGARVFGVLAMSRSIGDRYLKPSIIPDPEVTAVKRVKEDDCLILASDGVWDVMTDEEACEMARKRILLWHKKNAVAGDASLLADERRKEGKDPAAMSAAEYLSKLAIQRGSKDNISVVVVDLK
D3M: 98.9%
F103S: 18.6%
E131T: 107%
F5S: 99.9%
F103W: 94.3%
Y115R: -3.95%
E67T: 99.2%
N165M: 18%
D144E: 93.2%
T106E: 106%
T173W: 92.3%
L138D: 14.6%
P83D: 90.9%
E131D: 103%
F15H: 91.9%
V78S: 79.1%
R32K: 105%
L20W: 91.4%
I162V: 101%
S59Q: 94.1%
I105R: 8.07%
G102P: -4.7%
S80I: 48.2%

Study 5
Target: CCNB3, cyclin fold, Cln2 fusion (human)
Method: yeast growth competition, sequencing
Medium: yeast
Setting: weak parent motif
Reference: not given
Reading: higher = stronger binding
Endpoint: normalised enrichment score
Parent: PKMYT1 docking peptide (human); SFEPRNLLSLFED
SIEPRNLLSLFED [F2I]: 0.217
SFEPRNPLSLFED [L7P]: -0.0129
SFEPRFLLSLFED [N6F]: 0.62
AFEPRNLLSLFED [S1A]: 0.126
WFEPRNLLSLFED [S1W]: 0.491
GFEPRNLLSLFED [S1G]: 0.347
SFEPKNLLSLFED [R5K]: 0.457
SFEPRNLLSSFED [L10S]: 0.121
EFEPRNLLSLFED [S1E]: -0.144
SFEFRNLLSLFED [P4F]: 0.851
SFWPRNLLSLFED [E3W]: 0.34
SFEPRELLSLFED [N6E]: 0.44
SFEPRNLLVLFED [S9V]: 0.556
SFEARNLLSLFED [P4A]: 0.556
SFEPGNLLSLFED [R5G]: 0.269
SGEPRNLLSLFED [F2G]: 0.432
SFEPRNLLSLQED [F11Q]: 0.482
SFEPRNDLSLFED [L7D]: 0.12
SFEPRNLLSLAED [F11A]: 0.504
SFTPRNLLSLFED [E3T]: 0.475
SFEPRNLLSYFED [L10Y]: 0.41
SFEPRNLPSLFED [L8P]: -0.139
SFEPRNLLSLFEC [D13C]: 0.384
SFEPRNLLSAFED [L10A]: 0.478
SLEPRNLLSLFED [F2L]: 0.744
